Measured values pooled from the literature.
Several values in a cell are separate wells, animals, samples, runs or records. Numbers after ± are the reported error.
UniProt Q9ULC6, sequence (whole entry, looked up): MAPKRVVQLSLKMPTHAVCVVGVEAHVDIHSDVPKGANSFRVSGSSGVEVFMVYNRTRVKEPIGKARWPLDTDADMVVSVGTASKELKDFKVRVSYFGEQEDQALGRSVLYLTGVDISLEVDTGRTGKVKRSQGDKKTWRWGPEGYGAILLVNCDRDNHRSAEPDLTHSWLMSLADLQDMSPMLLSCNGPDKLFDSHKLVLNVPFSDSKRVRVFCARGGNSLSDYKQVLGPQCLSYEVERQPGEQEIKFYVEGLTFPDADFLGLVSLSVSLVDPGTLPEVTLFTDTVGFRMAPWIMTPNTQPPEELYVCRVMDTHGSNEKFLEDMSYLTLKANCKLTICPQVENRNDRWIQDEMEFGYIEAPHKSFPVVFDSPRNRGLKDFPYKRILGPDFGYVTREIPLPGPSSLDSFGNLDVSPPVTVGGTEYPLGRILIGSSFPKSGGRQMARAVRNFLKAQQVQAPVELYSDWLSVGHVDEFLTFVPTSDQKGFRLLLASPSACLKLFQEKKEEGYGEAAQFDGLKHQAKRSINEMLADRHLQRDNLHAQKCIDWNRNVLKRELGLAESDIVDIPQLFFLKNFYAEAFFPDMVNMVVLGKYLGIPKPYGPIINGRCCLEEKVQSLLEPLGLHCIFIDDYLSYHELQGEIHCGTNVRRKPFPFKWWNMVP
UniProt O96017, sequence (whole entry, unmodified, looked up): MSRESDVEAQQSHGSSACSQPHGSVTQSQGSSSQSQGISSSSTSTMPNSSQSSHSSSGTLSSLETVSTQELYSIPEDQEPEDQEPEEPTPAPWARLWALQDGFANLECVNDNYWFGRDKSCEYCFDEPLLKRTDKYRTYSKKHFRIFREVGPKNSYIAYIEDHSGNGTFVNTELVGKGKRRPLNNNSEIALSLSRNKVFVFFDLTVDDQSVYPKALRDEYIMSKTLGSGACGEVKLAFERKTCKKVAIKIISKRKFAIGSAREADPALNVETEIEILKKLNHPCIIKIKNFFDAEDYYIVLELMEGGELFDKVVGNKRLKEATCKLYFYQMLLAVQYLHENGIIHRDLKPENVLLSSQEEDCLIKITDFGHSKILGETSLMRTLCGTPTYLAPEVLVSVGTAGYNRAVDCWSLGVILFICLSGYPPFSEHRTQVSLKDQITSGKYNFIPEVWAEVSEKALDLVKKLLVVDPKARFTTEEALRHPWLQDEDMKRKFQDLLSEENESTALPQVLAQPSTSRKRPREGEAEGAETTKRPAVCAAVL
UniProt Q16620, sequence (whole entry, looked up): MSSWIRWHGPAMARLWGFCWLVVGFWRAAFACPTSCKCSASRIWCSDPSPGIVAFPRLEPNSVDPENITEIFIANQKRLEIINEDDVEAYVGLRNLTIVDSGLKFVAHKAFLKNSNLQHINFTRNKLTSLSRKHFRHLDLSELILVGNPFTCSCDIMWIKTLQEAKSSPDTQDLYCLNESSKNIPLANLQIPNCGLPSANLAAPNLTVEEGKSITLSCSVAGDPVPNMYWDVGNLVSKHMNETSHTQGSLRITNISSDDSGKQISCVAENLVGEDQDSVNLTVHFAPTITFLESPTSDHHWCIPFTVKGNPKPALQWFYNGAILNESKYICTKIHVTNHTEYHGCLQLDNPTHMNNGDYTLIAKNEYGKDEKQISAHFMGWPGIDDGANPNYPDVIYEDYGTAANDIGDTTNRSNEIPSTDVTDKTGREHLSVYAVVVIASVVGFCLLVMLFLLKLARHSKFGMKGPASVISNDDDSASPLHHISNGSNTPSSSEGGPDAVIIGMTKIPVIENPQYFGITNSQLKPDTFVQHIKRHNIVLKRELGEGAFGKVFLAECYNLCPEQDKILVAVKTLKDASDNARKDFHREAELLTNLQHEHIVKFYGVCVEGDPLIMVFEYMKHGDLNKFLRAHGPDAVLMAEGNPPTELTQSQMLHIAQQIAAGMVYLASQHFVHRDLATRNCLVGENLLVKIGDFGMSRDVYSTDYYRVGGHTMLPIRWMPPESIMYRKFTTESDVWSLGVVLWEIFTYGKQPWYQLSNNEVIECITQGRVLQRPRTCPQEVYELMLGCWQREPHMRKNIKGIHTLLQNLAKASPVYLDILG
UniProt Q91WC9, sequence (whole entry, looked up): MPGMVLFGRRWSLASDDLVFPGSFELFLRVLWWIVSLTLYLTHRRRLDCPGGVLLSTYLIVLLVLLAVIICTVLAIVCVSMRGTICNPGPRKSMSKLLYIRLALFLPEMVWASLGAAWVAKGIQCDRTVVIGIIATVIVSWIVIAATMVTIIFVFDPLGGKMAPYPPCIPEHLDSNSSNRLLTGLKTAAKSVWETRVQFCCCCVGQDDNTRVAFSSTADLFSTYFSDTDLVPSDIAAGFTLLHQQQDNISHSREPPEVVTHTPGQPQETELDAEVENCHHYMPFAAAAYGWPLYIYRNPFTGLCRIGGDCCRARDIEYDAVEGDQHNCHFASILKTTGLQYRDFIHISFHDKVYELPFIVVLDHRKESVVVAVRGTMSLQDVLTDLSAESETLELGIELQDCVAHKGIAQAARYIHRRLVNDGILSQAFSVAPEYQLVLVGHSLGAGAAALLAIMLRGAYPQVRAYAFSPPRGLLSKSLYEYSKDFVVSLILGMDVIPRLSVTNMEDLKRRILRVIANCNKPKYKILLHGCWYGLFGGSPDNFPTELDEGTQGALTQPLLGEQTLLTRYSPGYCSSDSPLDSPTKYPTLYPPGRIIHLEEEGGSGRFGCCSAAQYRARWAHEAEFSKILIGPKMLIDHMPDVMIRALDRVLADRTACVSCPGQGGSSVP
UniProt P21554, sequence (whole entry, unmodified, looked up): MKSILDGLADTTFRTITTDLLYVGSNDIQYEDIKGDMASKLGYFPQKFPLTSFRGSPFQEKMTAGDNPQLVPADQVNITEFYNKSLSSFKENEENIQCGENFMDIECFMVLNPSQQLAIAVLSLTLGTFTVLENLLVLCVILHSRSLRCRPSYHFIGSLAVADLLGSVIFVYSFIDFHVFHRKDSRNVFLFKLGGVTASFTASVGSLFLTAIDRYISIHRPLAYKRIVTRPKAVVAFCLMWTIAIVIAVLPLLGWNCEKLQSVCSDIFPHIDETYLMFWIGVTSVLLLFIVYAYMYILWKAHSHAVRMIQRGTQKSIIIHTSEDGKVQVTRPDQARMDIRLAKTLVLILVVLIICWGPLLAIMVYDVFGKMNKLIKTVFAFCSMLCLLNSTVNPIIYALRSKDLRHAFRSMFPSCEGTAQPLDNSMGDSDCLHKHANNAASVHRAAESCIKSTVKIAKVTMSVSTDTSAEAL
UniProt Q13177, sequence (whole entry, looked up): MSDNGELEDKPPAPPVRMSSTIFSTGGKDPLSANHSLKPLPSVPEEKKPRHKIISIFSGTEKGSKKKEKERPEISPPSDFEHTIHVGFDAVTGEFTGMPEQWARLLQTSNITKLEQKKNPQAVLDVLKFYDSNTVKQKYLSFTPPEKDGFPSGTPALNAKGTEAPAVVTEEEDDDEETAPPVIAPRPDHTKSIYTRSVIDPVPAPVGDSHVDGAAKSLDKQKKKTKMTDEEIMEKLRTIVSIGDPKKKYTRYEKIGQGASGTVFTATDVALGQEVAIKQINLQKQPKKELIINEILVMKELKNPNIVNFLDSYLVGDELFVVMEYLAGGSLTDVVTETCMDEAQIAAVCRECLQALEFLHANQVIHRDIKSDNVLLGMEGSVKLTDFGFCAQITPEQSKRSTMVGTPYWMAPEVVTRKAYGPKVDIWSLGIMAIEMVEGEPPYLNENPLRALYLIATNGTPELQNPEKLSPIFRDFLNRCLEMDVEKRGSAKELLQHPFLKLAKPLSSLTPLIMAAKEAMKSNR
UniProt Q9H422, sequence (whole entry, looked up): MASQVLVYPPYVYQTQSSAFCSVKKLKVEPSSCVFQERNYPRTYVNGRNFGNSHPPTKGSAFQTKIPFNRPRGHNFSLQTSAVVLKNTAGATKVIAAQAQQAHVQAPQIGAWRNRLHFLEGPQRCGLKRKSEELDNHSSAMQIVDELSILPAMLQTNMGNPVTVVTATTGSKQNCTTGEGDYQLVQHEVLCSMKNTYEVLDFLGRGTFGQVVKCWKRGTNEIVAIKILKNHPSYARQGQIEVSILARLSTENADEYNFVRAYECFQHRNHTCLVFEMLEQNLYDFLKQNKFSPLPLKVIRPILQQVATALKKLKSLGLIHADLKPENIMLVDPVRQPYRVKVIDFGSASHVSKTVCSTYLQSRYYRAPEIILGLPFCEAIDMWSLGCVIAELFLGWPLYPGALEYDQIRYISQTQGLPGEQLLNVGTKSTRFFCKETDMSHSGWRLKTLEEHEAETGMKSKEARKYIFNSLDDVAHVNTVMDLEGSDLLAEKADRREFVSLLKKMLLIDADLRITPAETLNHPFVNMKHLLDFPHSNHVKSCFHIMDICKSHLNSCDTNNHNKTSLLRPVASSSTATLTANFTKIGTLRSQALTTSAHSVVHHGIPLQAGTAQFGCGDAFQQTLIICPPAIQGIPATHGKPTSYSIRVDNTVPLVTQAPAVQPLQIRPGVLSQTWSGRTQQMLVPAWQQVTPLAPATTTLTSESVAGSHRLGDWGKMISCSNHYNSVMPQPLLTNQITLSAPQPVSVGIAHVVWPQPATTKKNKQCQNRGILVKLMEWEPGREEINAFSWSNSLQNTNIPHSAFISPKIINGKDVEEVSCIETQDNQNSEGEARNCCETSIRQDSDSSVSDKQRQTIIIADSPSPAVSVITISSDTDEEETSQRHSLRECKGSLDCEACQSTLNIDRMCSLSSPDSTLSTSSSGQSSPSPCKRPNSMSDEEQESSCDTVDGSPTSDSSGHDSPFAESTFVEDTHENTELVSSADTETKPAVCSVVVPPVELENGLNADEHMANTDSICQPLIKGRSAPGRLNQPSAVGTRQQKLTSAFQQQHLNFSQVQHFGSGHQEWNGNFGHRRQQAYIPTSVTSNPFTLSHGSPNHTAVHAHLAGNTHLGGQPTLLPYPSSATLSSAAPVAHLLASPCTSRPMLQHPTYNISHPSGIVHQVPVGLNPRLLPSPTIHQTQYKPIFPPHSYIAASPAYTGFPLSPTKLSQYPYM

`CC(C)[C@H]1NC(=O)C[C@H]2/C=C/CCSSC[C@@H](NC1=O)C(=O)N[C@H](Cc1cccc3ccccc13)C(=O)NCC(=O)O2` gave an inhibition of 0.367% (HIPK3 (Homo sapiens, UniProt Q9H422); enzyme activity, inhibitor; 10 µM).
With `CCOc1ccc(CNCCc2ccc3c(c2)OCO3)cc1` the relative translation was 104% (Trypanosoma cruzi; reporter mRNA translation, inhibitor, measured: capped polyadenylated Renilla luciferase mRNA; cell-free extract; concentration not given; reference: control RNA).
With `O=C1NC(=O)c2c1c1cc(F)c[n+]3c1c1c2c2cc(O)ccc2[n]1[Ru-4]312([N]=C=S)[S+]3CC[S+]1CC[S+]2CC3` (stereo not shown) the remaining activity was 68% (NTRK2 (Homo sapiens, UniProt Q16620); enzyme activity; 100 nM, human enzyme, added: 10 µM ATP; reference: untreated).
`Nc1ccc(/C=C/C(=O)N2CCc3c(oc4c(-c5ccc(F)cc5)cc(-c5ccc(C(=O)N6CCC(F)(F)CC6)cn5)cc34)C2)cn1` has a remaining binding of 91% (PAK2 (Homo sapiens, UniProt Q13177); binding, competition with immobilised ligand; 1 µM).
`CS(C)(=O)=Nc1ccc(-c2ccc(-c3nc4cc(O[C@@H]5CO[C@H]6[C@@H]5OC[C@H]6O)[nH]c4cc3F)cc2)cc1` gave an inhibition of -22% (CHEK2 (Homo sapiens, UniProt O96017, I157T); enzyme activity, inhibitor; 10 µM).
For `CCCC1COC(Cn2cncn2)(c2ccc(Cl)cc2Cl)O1` (stereo not shown), the translation activity was 127% and 104% (Trypanosoma cruzi; reporter mRNA translation, inhibitor, measured: Renilla luciferase mRNA; cell-free extract; concentration not given, test 2; reference: positive over negative control).
The kcat of `N[C@H](C(=O)N1CCCC1)C1CCN(c2nccc3c(-c4ncc(Cl)cc4Cl)cccc23)CC1` is reported as 0.313 s⁻¹ and 0.32 s⁻¹ (PADI1 (Homo sapiens, UniProt Q9ULC6); enzyme activity; 0.03932 µM, added: Ca2+ 0.25 mM).
`C#CCN(Cc1ccc2nc(C)[nH]c(=O)c2c1)C(=O)NC(CSCC(N)=O)c1cccc([N+](=O)[O-])c1` (stereo not shown) gave an MIC50 of over 100 µM (Mycobacterium tuberculosis; bacterial growth, inhibitor; H37Rv pptT conditional knockdown; added: anhydrotetracycline added).
For `CC(C)CC(O)(CC(C)C)c1cn(C(=O)N2CCCC2)nn1`, “activity-based probe labelling ratio” read 1.56 (Diacylglycerol lipase-beta (Mus musculus, UniProt Q91WC9); mouse, brain; concentration not given; reference: vehicle over compound).
With `Cc1ccsc1C(=O)C1CCCN(Cc2cnc(N3CCCC3)s2)C1` (stereo not shown) the relative translation was 117% (Trypanosoma cruzi; reporter mRNA translation, inhibitor, measured: capped polyadenylated Renilla luciferase mRNA; cell-free extract; concentration not given; reference: control RNA).
With `Cc1ccc2c(C(C[N+](=O)[O-])c3cccs3)c(-c3ccccc3)[nH]c2c1` (stereo not shown) the Emax was 74.4 ± 4.01% (CNR1 (Homo sapiens, UniProt P21554, S199A); Gαi1-γ2 dissociation, BRET).
For `CN(C)[C@H]1C[C@@]23CC[C@@]4(O2)C(=CC[C@]2(C)[C@@H](c5ccc6ccncc6c5)CC[C@H]24)C=C3[C@@H](O)[C@@H]1O`, the inhibition was -6.1% (HCK (Homo sapiens, UniProt P08631); ATP probe labelling, inhibitor, KiNativ profiling; 0.1 µM).
For `Cc1sc2c(c1C)C(c1ccc(Cl)cc1)=NC(CC(=O)OC(C)(C)C)c1nnc(C)n1-2` (stereo not shown), the remaining binding was 103% (BDKRB2 (Homo sapiens, UniProt P30411); ligand displacement, radioligand; 1 µM).
